Published values from different studies.
Parts stem from different laboratories: compare values within a part only. Changes are numbered by the printed parent chain.

Sample 1 — method: protein-binding microarray; molecule type: double-stranded DNA, one strand shown; sample: in vitro; tested at: not given; reading: higher = stronger binding; measurement: E-score
Target: Protein C-ets-1 (ETS1, Homo sapiens, UniProt P14921, residues 1-441, K379A, full length assumed)
Setting: k-mer, scored over probes, only values ≥0.25
Target sequence (chain): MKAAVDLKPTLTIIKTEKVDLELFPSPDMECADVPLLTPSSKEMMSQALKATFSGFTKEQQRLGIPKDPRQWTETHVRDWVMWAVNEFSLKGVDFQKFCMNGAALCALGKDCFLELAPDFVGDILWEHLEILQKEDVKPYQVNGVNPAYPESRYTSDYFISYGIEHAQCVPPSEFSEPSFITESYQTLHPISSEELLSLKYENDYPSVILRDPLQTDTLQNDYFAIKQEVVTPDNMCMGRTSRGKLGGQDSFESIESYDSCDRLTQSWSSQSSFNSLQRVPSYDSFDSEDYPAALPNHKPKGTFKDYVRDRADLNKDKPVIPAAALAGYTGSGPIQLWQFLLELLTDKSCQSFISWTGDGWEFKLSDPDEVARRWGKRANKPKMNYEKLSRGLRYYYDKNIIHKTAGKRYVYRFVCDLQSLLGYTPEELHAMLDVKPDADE
Strand = TATCATGA; result = 0.296
Strand = ACCGCCAC; result = 0.264
Strand = CGATACAC; result = 0.254
Strand = ACCGACCG; result = 0.319
Strand = ATACAAAA; result = 0.259
Strand = AATGGTAG; result = 0.281
Strand = CGGTAGCC; result = 0.286
Strand = GTGTCGCA; result = 0.27
Strand = GAACGGAA; result = 0.278
Strand = ACACAATG; result = 0.311
Strand = TATACGAA; result = 0.29
Strand = GGTAACTA; result = 0.275
Strand = CCATTTCC; result = 0.346
Strand = ACCCCGGT; result = 0.393
Strand = ATCCGGCA; result = 0.27
Strand = ATTCCGAC; result = 0.298
Strand = ACAGGAAA; result = 0.333
Strand = GAACGTAA; result = 0.277
Strand = GACGGTAC; result = 0.254
Strand = ACACATAT; result = 0.356
Strand = GCGGTAAC; result = 0.281
Strand = AATTAACC; result = 0.309
Strand = CAACCGGA; result = 0.371
Strand = GTCGACGA; result = 0.282
Strand = ACAATGCA; result = 0.257

Sample 2 — target: FOSB, bZIP domain (human); method: DHFR protein complementation; sample: yeast; reference: wild-type JUN-FOS pair; reading: higher = stronger binding; measurement: binding fitness
Setting: single substitutions, most at no-binding floor
Parent: JUN, bZIP domain (human); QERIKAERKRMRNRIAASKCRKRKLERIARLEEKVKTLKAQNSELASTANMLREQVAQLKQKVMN; partner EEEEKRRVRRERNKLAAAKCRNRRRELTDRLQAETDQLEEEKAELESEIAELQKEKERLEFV
Change = N42K; result = -0.152 natural log
Change = Q41M; result = -0.166 natural log
Change = A57Q; result = -0.199 natural log
Change = A49Y; result = -0.415 natural log
Change = R30V; result = 0.108 natural log
Change = E54H; result = -0.203 natural log
Change = K39R; result = 0.047 natural log
Change = R53H; result = -0.641 natural log
Change = A29P; result = -0.54 natural log
Change = V56M; result = -0.991 natural log
Change = I28F; result = -0.296 natural log
Change = A49Q; result = -0.906 natural log
Change = S43M; result = -0.0556 natural log
Change = A46Y; result = -0.254 natural log
Change = M51Q; result = -0.00361 natural log
Change = R53N; result = -0.962 natural log
Change = V56T; result = -0.815 natural log
Change = M51N; result = -0.0691 natural log
Change = A49F; result = -0.823 natural log
Change = E54G; result = -0.146 natural log
Change = Q55H; result = -0.162 natural log
Change = T48F; result = -0.117 natural log
Change = M51R; result = -0.0396 natural log
Change = K39W; result = -1.04 natural log
Change = L31N; result = -0.744 natural log

Sample 3 — method: RNA Bind-n-Seq; molecule type: RNA; sample: in vitro; tested at: 365 nM; reference: no-protein control; reading: higher = stronger binding; measurement: RBNS enrichment (R)
Target: RNA binding protein fox-1 homolog 2, RRM domain, GST-SBP tag (RBFOX2, Homo sapiens, UniProt O43251-10, residues 100-194)
Setting: natural RNA segment, single round, ends assumed
All sequences stand within: GGGAGUUCUACAGUCCGACGAUC … UGGAAUUCUCGGGUGCCAA
Target sequence (chain): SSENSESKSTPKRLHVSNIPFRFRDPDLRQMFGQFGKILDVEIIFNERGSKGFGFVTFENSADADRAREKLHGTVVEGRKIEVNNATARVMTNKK
Strand = AUGUUAACUUUCAGUGUCACCAUCUUACAGCUUAGGGGCAUUUGCAUUCCCCUGACAAAGGUAUCAUGUGUACAGCUCAGUAGUGUGCCCUGUCCUUCUCAUGGACUCCA; result = 0.23
Strand = UAAAUUUUAUUUGGUUUGUACUCAAUUCAAUUUCAAAAUUGCUAAAAUGUGUUUGAGCUUUAGACUAUAACAUUUGUUGUAAUAAUUGCUAGGUUGAAGUUCACCAUGUU; result = 0.558
Strand = GGCAGCCUCUUCAACCAUUAUUGGUCUAACCUGGCUUGUCAGGAAACCAAGCCCACCCUUCCACAUUGGGCCUGGCUGCUCUAUUCUGUACCAAGUACUGGAGAAAAAGC; result = 0.331
Strand = AGGGGUAACAACUAACAAACACCCAAACUGUUUGGAUUGAUUGCUUUAAAAAACAAACCUGGCUCUUACCUUUGAUCUUUUCUUCCCCAGAAAUAGUAAACUUGCAGCUG; result = 0.292
Strand = UCCUCAAGGACCCCUUCUUCCUUUAGGCCUUUCUGUCUUGAUCUGUGCAUUAAGAAAUUUAAGUUUGGGGCUGGAGAAAUGGCCCAUCGAUUAAGAAAGAGCACUGGUGG; result = 0.958
Strand = AAGGCCUCUCAGACCCAGAUGUGACGGGGUGUGUGGCCCGAGGAAGCUGGACAGCGGCAGUGGGCCUGCUGAGGCCUUCUCUUGAGGCCUGUGCUCUGGGGGUCCCUUGC; result = 0.405
Strand = GGCGUGACCCUCUUGUGAAGUACUGGUUCUGUUUCCUGAUUCCUUUUGCACUCCUCCAUCCCACCUGUGAGUGGGAGUUUACCUGUUACCCUGUAAUUAAAAACAAAGGC; result = 0.662
Strand = AAAUCGCUGGUGCUCACAAUUGUCUCUUGUAAUGUAUGUGAUUUUUUUAAGGAGAAAAAGAAACUUAUUUAAGAUUCUGAAGGUGCUACUAUUUUCUGUUGCCACAGGCU; result = 0.853
Strand = AUUCACCAGAGUUGGAAUUGAGAAAUUUUGGGCUUUCCAAAAUUAACCUUUAAACUUAAAAUUGAUUACAUUGAGCCUAUUCAGAAAAAAAAUUAUAUAGGUUCUGAUGA; result = 0.662
Strand = GACAACAGAUUGGAUCUGUAAUGUUGAUUAGUCUUUAGCCAUAACCACUACACUUUUAGAAAGACAGAAAAAUGUAAGAAUUUGUUUUUACCAUAAUGAGUCUUAAGUAG; result = 0.341
Strand = GGUCUUUUGUUCAAUAUUUUACAAUUUAGACUUCUGUCCAACACUAAUUUAUUUUGUCUUGAGUUGUACUGCGAGAGAAGAAUAUGGGGUUUUGUAUGCCCGUGUUCCUU; result = 0.717
Strand = CCUUGAAGCCACAAGCUAGUUUUCUUAGUUUUAAAAUCCUGUUGUAUGAAUGGCAUUUGUAUAUUAAAACACUUUUUUAAAGGACAGUUGAAAAGGGCAAGAGGAAACCA; result = 0.404

Sample 4 — method: protein binding microarray; molecule type: double-stranded DNA, one strand shown; sample: in vitro; tested at: not given; reference: not given; reading: higher = stronger binding; measurement: E-score
Target: Histone acetyltransferase KAT6A, winged helix 1, GST fusion (KAT6A, Homo sapiens, UniProt Q92794, residues 1-85)
Setting: 8-mer, flanks averaged, mean of 2 arrays, mostly near background
Target sequence (chain): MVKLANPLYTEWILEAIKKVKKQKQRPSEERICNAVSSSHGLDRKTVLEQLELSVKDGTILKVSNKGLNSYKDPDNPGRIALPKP
Strand = AAATGGGT; result = -0.243
Strand = ACTTCAGA; result = -0.12
Strand = CCAGCAGG; result = -0.0608
Strand = AATTCGAT; result = -0.139
Strand = ATGTCAAC; result = -0.19
Strand = CAGACATA; result = 0.113
Strand = ATGTTAAC; result = -0.0906
Strand = ATAGTCGG; result = 0.047
Strand = CTCATCGC; result = 0.0602
Strand = ACTTTGGA; result = -0.243
Strand = CAATCCTG; result = -0.177
Strand = CACATCGG; result = 0.11
Strand = CCCAGTTA; result = -0.144
Strand = AAAACTCA; result = -0.285
Strand = ACCCGAGA; result = 0.00024
Strand = ATAATGTC; result = 0.0168
Strand = CGCGGGTA; result = 0.384
Strand = ATATTCAT; result = -0.16
Strand = GGTTCGGA; result = 0.0361
Strand = AAGCCTAC; result = -0.0964
Strand = GAACCCAC; result = -0.0603
Strand = GTGTCGTA; result = -0.204
Strand = AAACACTA; result = -0.057

Sample 5 — method: RNA Bind-n-Seq; molecule type: RNA; sample: in vitro; tested at: 200 nM; setting: whole 134-nt RNA, ends assumed; together with: 150 mM LiCl; reference: input library; reading: higher = stronger binding; measurement: log2 enrichment; each molecule: 7-deaza-guanosine replaces G
Target: Fragile X messenger ribonucleoprotein 1, C-terminal low-complexity region (Fmr1, Mus musculus, UniProt P35922)
All sequences stand within: GGGAGUUCUACAGUCCGACGAUC … UGGAAUUCUCGGGUGUCAAGG
Strand = CUCAAGUCCUGUGCUACACAUCGUAUGUACCGAAUCGGGGCGGGGCGGCGGGGAAAGUAUUAUGUUACGCCGUUCGGAUCUGCACUUCCA; result = -0.699
Strand = CACAGACAACACGCACCCACACAGACACAGAGGGAAGGGGUUGGGACGGGGACAGGGUGCACAGCAGGGCGGGGUAGGACCCCAGCCCCU; result = 0.679
Strand = CAAGUCCUGUGCUACACAUCGUAUGUACCGAAUCGGGUGGGAGGGUUUUUUUGGGAAAGUAUUAUGUUACGCCGUUCGGAUCUGCACUUC; result = -0.554
Strand = AAGUCCUGUGCUACACAUCGUAUGUACCGAAUCGGGGUUUGGGGUUUGGGGUUUGGAAAGUAUUAUGUUACGCCGUUCGGAUCUGCACUU; result = -1.66
Strand = CUGUGCUACACAUCGUAUGUACCGAAUCGGGUUUUUUUGGGGUUUUUUUGGGGUUUUUUUGGAAAGUAUUAUGUUACGCCGUUCGGAUCU; result = 1.58
Strand = CCUCAAGUCCUGUGCUACACAUCGUAUGUACCGAAUCGGGCGGGCGGCGGGGAAAGUAUUAUGUUACGCCGUUCGGAUCUGCACUUCCAG; result = 0.453
Strand = AAGUCCUGUGCUACACAUCGUAUGUACCGAAUCGGGAAAAAGGGAAAAAGGGAGGGAAAGUAUUAUGUUACGCCGUUCGGAUCUGCACUU; result = 0.0263
Strand = UGGGAGGUGGAUUUUGUUUAUUUUUAUAGCUCAUUUCCAGGGGUGGGAAUUUUUUUUUAAUAUGUGUCAUGAAUAAAGUUGUUUUUGAAA; result = 0.128
Strand = ACCAUGCAGGUGGGCAUCUUUGGGAAGUGGGGCAAGGGGGGGAUAGGGAGGGGGGUAACACUUUGGGAACAGGUGGUACCAGGUCGUUUC; result = 1.71
Strand = ACCAUGCAGGUGGGCAUCUUUGGGAAGUGGGGCAAGGGGGGGAUAGGGAGGGGGGUAACACUUUGGGAACAGGUGGAAACAGGUCGUUUC; result = 1.1
Strand = GCAGGAAGUAAAAACAAAUGGAAAUGCUUCGGAUAGUGGCAGGGGUGGGGGUUGCUAAGGAAAGGGUGGGAUGGGAGUGGGUAAAGUGUU; result = 1.86

Repeated from above (sample 2):
Change = V56M; result = -0.991 natural log
Change = I28F; result = -0.296 natural log
Change = A49Q; result = -0.906 natural log
Change = S43M; result = -0.0556 natural log
Change = A46Y; result = -0.254 natural log
